Published values gathered from unrelated publications.
Each line is one published result; not all experiments were run side by side.

| Structure (SMILES) | test | test system | conditions | Cmax |
| --- | --- | --- | --- | --- |
| O=c1ccc2ncc(=O)n3c2n1C[C@H]3CN1CCC(NCc2cc3c(cn2)OCCC3)CC1 | – | healthy human volunteers, plasma | oral, dose not given, arithmetic mean, with: rifampicin | 3060 ng/mL |
| O[C@H]1CCCN[C@@H]1CCCn1cnc2c(Cl)c(Cl)ccc21 | – | human, UGT2B7 ND+DD phenotype, plasma | oral, 150 mg twice daily, steady state | 284 ng/mL |
| C[C@H](NC(=O)c1c(C(F)F)nn(C)c1Oc1cccc(C(F)(F)F)c1)c1ccc(C(=O)O)cc1 | – | human, plasma | 250 mg, cycle 1 day 8, mean | 604 ng/mL |
| Cn1ncc(-c2nc(N[C@H]3CC[C@H](N)CC3)ncc2Cl)c1CC1CC1 | HPLC-MS/MS | human patients | oral, 3 mg, day 5 | 20.5 ng/mL |
| N.N.O=C([O-])C1(C(=O)[O-])CCC1.[Pt+2] | item: unbound platinum | human, plasma ultrafiltrate | intravenous, AUC 3, median, dose level -2 | 17100 ng/mL |
| OCc1ncc2n1-c1ccc(Cl)cc1C(c1ccccc1F)=NC2 | – | human, plasma | oral, 7.5 mg of midazolam, day 26, arithmetic mean, no amenamevir | 16.6 ng/mL |
| N.N.O=C([O-])C1(C(=O)[O-])CCC1.[Pt+2] | ICP-MS platinum, item: platinum | human patients, plasma ultrafiltrate | dose not given, carboplatin target AUC 3, cycle 1 day 1 | 30000 ng/mL |
| CC(=O)c1c(C)c2cnc(Nc3ccc(C4CCN(CCS(C)(=O)=O)CC4)cn3)nc2n(C2CCCC2)c1=O | – | human patients, plasma | oral, 100 mg twice daily, day 1 single dose, with: fulvestrant | 227 ng/mL |

Some of these lines once more:
| Structure (SMILES) | test | test system | conditions | Cmax |
| --- | --- | --- | --- | --- |
| CC(=O)c1c(C)c2cnc(Nc3ccc(C4CCN(CCS(C)(=O)=O)CC4)cn3)nc2n(C2CCCC2)c1=O | – | human patients, plasma | oral, 100 mg twice daily, day 1 single dose, with: fulvestrant | 227 ng/mL |
